Published values of several laboratories.
Lines come from different studies, so protocols differ. Values joined by “and” are separate records of one study, mostly repeats; a detail may differ. ± gives the spread as reported.
PPARG: Peroxisome proliferator-activated receptor gamma (PPARG, Homo sapiens, UniProt P37231)
Chain of UniProt P10635 (whole entry, looked up): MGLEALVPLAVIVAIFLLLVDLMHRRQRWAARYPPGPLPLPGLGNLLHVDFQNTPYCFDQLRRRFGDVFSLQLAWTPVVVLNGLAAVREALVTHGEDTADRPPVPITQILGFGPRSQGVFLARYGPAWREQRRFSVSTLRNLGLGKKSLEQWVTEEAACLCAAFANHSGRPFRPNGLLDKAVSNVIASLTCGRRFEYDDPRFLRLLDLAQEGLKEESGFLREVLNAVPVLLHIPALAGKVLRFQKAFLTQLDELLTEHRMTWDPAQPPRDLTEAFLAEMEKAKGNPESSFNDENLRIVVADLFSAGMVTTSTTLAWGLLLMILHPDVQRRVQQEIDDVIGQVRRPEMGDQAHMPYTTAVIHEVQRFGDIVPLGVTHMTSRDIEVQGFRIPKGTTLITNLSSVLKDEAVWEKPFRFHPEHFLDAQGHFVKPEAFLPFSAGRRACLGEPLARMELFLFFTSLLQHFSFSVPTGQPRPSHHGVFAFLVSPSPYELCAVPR
Chain of UniProt O75582 (whole entry, looked up): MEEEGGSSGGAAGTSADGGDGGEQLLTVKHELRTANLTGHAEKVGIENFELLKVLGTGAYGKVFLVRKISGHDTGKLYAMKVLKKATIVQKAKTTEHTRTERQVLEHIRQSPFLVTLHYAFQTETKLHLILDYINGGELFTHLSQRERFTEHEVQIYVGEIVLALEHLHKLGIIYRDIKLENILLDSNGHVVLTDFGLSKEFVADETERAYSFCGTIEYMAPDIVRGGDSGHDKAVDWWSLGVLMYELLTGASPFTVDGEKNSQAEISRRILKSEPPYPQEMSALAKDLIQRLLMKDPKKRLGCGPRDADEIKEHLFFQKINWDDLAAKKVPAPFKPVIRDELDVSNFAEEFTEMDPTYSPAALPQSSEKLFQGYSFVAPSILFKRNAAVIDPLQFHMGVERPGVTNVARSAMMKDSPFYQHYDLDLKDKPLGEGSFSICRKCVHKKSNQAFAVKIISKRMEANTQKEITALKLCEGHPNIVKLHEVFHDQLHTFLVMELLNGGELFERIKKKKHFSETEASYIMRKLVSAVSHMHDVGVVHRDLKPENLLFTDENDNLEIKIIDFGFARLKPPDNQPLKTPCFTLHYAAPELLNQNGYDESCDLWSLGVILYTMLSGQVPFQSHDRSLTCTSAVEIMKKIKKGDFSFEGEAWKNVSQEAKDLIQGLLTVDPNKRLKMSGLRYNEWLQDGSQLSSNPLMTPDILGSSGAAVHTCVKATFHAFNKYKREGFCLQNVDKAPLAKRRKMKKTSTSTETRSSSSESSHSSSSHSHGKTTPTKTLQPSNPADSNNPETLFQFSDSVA

SMILES | target or system | assay | system | conditions | scale | endpoint | value
Cc1nn(-c2cccc(N)c2)c(=O)c2cnc(Nc3ccc(N4CCNCC4)cc3)nc12 | Ribosomal protein S6 kinase alpha-5 (RPS6KA5, Homo sapiens, UniProt O75582) | enzyme activity, inhibitor |  |  |  | IC50 | 768 nM
COC1CN([C@H]2CC[C@H]([C@@]3(C)Oc4c(Cl)cc(C(=O)NCc5c(SC)cc(C)[nH]c5=O)c(C)c4O3)CC2)C1 |  | RNA-seq, measured: RHPN2 mouse homolog | mouse, HT-1376 xenograft, whole blood | dose not given | relative to: vehicle | log2 fold change | 0.812
Clc1cc2nc(c1)CNCc1cc(Cl)cc(n1)CNC2.[Cu+2] | Cu(II)/Cu(I) redox couple | cyclic voltammetry | DMF | with: TBAP | relative to: Fc/Fc+ | half-wave potential | -652 mV
O=C(OC[C@@]1(O)C(=O)C=C[C@H]2[C@@H]1[C@H]1C=C[C@@H]2C(=O)[C@]1(O)COC(=O)c1ccccc1)c1ccccc1 | SW480 | cell growth or viability, MTT |  | 50 µg/mL |  | viability | 60.2%
COc1cc2nc(c1)CNCc1cc(OC)cc(n1)CNC2.[Cu+2] | Cu(II)/Cu(I) redox couple | cyclic voltammetry | DMF | with: TBAP | relative to: Fc/Fc+ | half-wave potential | -803 mV
Nc1nc2cc(C(=O)c3ccc(F)cc3)ccc2[nH]1 | Salmonella typhimurium | Ames preincubation test | TA98 | 156.0 µg/plate, without S9 |  | revertants | 17.3 revertants/plate
N#C[C@@H]1CCCN1C(=O)CNC(=O)c1ccnc2ccc(OCCCN3CCN(C(=O)CCc4ccc(O)c(CN5CCN6CC(=O)[O][Al-]([18F])([O]C(=O)C5)[O]c5ccc(CCC(=O)N7CCN(CCCOc8ccc9nccc(C(=O)NCC(=O)N%10CCC[C@H]%10C#N)c9c8)CC7)cc5C6)c4)CC3)cc12 (stereo partly shown) | U-87 MG tumour model |  | host not given, liver | 1 h, tumour-bearing |  | tracer uptake | 9.79 %ID/g
O=C1NC2(CC2)COc2ncc(F)cc2[C@H]2COCCN2c2ccn3ncc1c3n2 | Salmonella typhimurium | Ames test | TA102 | 1500 µg/plate, 48 h, with: rat liver S9 |  | revertant colonies | 414 ± 19 revertants/plate
C=C(NC(=O)c1csc(-c2nc3c(cc2O)-c2nc(cs2)C(=O)NC(C(C)O)C(=O)NC(=C(C)OC)c2nc(cs2)C(=O)NC2c4nc(cs4)C(=O)NC(COC(=O)c4c5c6c(cccc6n4O)COC(=O)C(OC4CC(C)(O)C(N(C)C)C(C)O4)C2OC5)c2nc-3cs2)n1)C(N)=O (stereo not shown) |  |  | ICR mice, Streptococcus pneumoniae ATCC 49169 infected, immunocompromised, blood | intravenous, 4 mg/kg once daily |  | AUC(0-t) | 0.216 µM·h
COc1cccc(OC)c1-c1cc(C(=O)NC2(C(=O)O)C3CC4CC(C3)CC2C4)nn1-c1ccc(C(=O)N(C)CCCN(C)CCCN(C)C(=O)[C@H](CCCCNC(=O)[C@H](CC(C)C)NC(=O)C2OC2C(=O)O)NC(=O)CN2CCN(CC(=O)[O-])CCN(CC(=O)[O-])CCN(CC(=O)[O-])CC2)cc1C(C)C.[177Lu+3] (mixture of isomers) | HT-29 tumour model |  | host not given, stomach | 4 h, tumour-bearing |  | tracer uptake | 1.3 %ID/g
Cc1c(Cc2cccc(OC(C)(C)C(=O)O)c2)c2ccc(C(=O)N[C@@H](C)c3ccc(C4CC4)cc3)cc2n1C | PPARG | ligand displacement, TR-FRET |  |  |  | IC50 | 0.3 nM
C=CC(=O)Nc1cccc(Cn2ncc3cnc(Nc4cnn(CCOC)c4)nc32)c1 | IRAK1 human | binding, KINOMEscan |  | 100 nM | lower = stronger binding | percent of control | 74%
N#C[C@@H]1CC(F)(F)CN1C(=O)CNC(=O)c1ccnc2c(NC(=O)CCOCCOCCOCCOCCOCCOCCNC(=O)[C@H](CCCCNC(=O)CN3CCN(CC(=O)[O-])CCN(CC(=O)[O-])CCN(CC(=O)[O-])CC3)NC(=O)CCCc3ccc(I)cc3)cccc12.[177Lu+3] | U-87 MG tumour model |  | host not given, blood | 48 h, tumour-bearing |  | tracer uptake | 0.98 %ID/g
COc1cccc(OC)c1-c1cc(C(=O)NC2(C(=O)O)C3CC4CC(C3)CC2C4)nn1-c1ccc(C(=O)N(C)CCCN(C)C(=O)[C@H](CCCCNC(=O)[C@H](CC(C)C)NC(=O)C2OC2C(=O)O)NC(=O)CN2CCN(CC(=O)[O-])CCN(CC(=O)[O-])CCN(CC(=O)[O-])CC2)cc1C(C)C.[177Lu+3] (mixture of isomers) | HT-29 tumour model |  | host not given, pancreas | 24 h, tumour-bearing |  | tracer uptake | 0.12 %ID/g
CCN(CC)CC#CCNc1ccnc2cc(Cl)ccc12 | Salmonella typhimurium | mini-Ames test | TA102 | 1000.0 µg/well, without S9 |  | revertants | 45 revertants/well and 53 revertants/well
CC(C)OCCOCc1ccc(OCC(O)CN(N=O)C(C)C)cc1 (stereo not shown) | Salmonella typhimurium, Escherichia coli | enhanced Ames test | TA100, TA1535, WP2 uvrA | concentration not given, 30 min pre-incubation, 37 °C, 30% uninduced hamster S9 |  | mutagenicity | negative
Cc1cccc([C@H](C)NC(=O)c2ccc3c(Cc4cccc(OC(C)(C)C(=O)O)c4)c(C)n(C)c3c2)c1 | PPARG | ligand displacement, TR-FRET |  |  |  | IC50 | 0.5 nM
O=C(Nc1cnccc1-c1ccc([18F])cc1)c1ccnc(NC(=O)C2CC2)c1 | GSK-3β imaging tracer |  | FVB/NJ mice, both sexes, brain | intravenous, 2 min, early frames, no P-gp inhibitor |  | SUV | 0.94 ± 0.28
CNC(=O)C1CCCN(C(=O)C2CC3CCC2N3C(=O)[C@@H]2C[C@@H](O)CN2C(=O)NCc2cccc(Cl)c2F)C1 (mixture of isomers) | Cytochrome P450 2D6 (CYP2D6, Homo sapiens, UniProt P10635) | enzyme activity, inhibitor, time-dependent inhibition |  | 0.617 µM, preincubated without NADPH |  | dextrorphan formation | 158 ng/mL
CC(C)C[C@H](NC(=O)[C@H](Cc1ccc(O)cc1)NC(=O)[C@@H](CCCNC(=N)N)NC(=O)[C@@H](CO)NC(=O)[C@H](Cc1ccccc1)NC(=O)[C@H](CC1CCCCC1)NC(=O)[C@H](CC(=O)O)NC(=O)CN1CCN(CC(=O)O)CCN(CC(=O)O)CCN(CC(=O)O)CC1)C(=O)N[C@@H](Cc1c[nH]c2ccccc12)C(=O)N[C@@H](CO)C(=O)O [copper-64 labelled] |  |  | human, pancreas | concentration not given, 24 h |  | activity concentration | 3200 Bq/mL and 1340 Bq/mL and 1590 Bq/mL and 742 Bq/mL and 1550 Bq/mL and 1300 Bq/mL
O=C1C2CC3CC1CC(C(=O)N1CCN(c4ccc([N+](=O)[O-])c5ncccc45)CC1)(C3)C2 | Escherichia coli | Ames test | WP2 uvrA pKM101 | 0.31 µg/well, without S9 activation | relative to: vehicle | fold increase in revertants | 0.9
COCC1CN(C2CCN(c3cc(OC)c(Nc4ncc(Br)c(Nc5ccc6c(c5P(C)(C)=O)OCCO6)n4)cc3C)CC2)C1 |  | first-in-human trial | human | oral, 60 mg once daily | treatment-related | serious adverse events | 0%
FC(F)(F)c1cc2nc(c1)CNCc1cc(C(F)(F)F)cc(n1)CNC2.[Cu+2] | Cu(II)/Cu(I) redox couple | cyclic voltammetry | DMF | with: TBAP | relative to: Fc/Fc+ | half-wave potential | -716 mV
CCCC[C@H](NC(=O)CCCCCCCNC(=O)CN1CCN(CC(=O)O)CCN(CC(=O)O)CC1)C(=O)N[C@H]1CC(=O)NCCCC[C@@H](C(N)=O)NC(=O)[C@H](Cc2c[nH]c3ccccc23)NC(=O)[C@H](CCCNC(=N)N)NC(=O)[C@@H](Cc2ccccc2)NC(=O)[C@H](Cc2c[nH]cn2)NC1=O [technetium-99m labelled] |  |  | C57 mouse, tumor | intravenous, 0.037 MBq, 24 h |  | tissue uptake | 0.91 ± 0.57 %ID/g
COc1cccc(OC)c1-c1cc(C(=O)NC2(C(=O)O)C3CC4CC(C3)CC2C4)nn1-c1ccc(C(=O)N(C)CCOCCOCCN(C)C(=O)[C@H](CCCCNC(=O)[C@H](CC(C)C)NC(=O)C2OC2C(=O)O)NC(=O)CN2CCN(CC(=O)[O-])CCN(CC(=O)[O-])CCN(CC(=O)[O-])CC2)cc1C(C)C.[177Lu+3] (mixture of isomers) | HT-29 tumour model |  | host not given, bone | 72 h, tumour-bearing |  | tracer uptake | 0.31 %ID/g
N#C[C@@H]1CC(F)(F)CN1C(=O)CNC(=O)c1ccnc2c(NC(=O)[C@H](CCCCNC(=O)CCOCCOCCOCCOCCOCCOCCNC(=O)CN3CCN(CC(=O)[O-])CCN(CC(=O)[O-])CCN(CC(=O)[O-])CC3)NC(=O)CCCc3ccc(I)cc3)cccc12.[177Lu+3] | U-87 MG tumour model |  | host not given, pancreas | 72 h, tumour-bearing |  | tracer uptake | 0.48 %ID/g
Nc1ncc(-c2cc(-c3cnn(CC(F)(F)F)c3)ncc2F)nc1C(=O)NC1CNCC(F)C1 (stereo not shown) | HUNK | KINOMEscan |  | 1 µM | relative to: DMSO control | remaining binding | 94%
CN(C)C(=O)c1cccc(N2Cc3cnn(Cc4ccc(F)cc4)c3C2)c1 | MDR1-MDCK |  |  |  | relative to: B-A over A-B | efflux ratio | 7.3

Some of these lines once more:
SMILES | target or system | assay | system | conditions | scale | endpoint | value
Cc1nn(-c2cccc(N)c2)c(=O)c2cnc(Nc3ccc(N4CCNCC4)cc3)nc12 | Ribosomal protein S6 kinase alpha-5 (RPS6KA5, Homo sapiens, UniProt O75582) | enzyme activity, inhibitor |  |  |  | IC50 | 768 nM
COC1CN([C@H]2CC[C@H]([C@@]3(C)Oc4c(Cl)cc(C(=O)NCc5c(SC)cc(C)[nH]c5=O)c(C)c4O3)CC2)C1 |  | RNA-seq, measured: RHPN2 mouse homolog | mouse, HT-1376 xenograft, whole blood | dose not given | relative to: vehicle | log2 fold change | 0.812
Clc1cc2nc(c1)CNCc1cc(Cl)cc(n1)CNC2.[Cu+2] | Cu(II)/Cu(I) redox couple | cyclic voltammetry | DMF | with: TBAP | relative to: Fc/Fc+ | half-wave potential | -652 mV
O=C(OC[C@@]1(O)C(=O)C=C[C@H]2[C@@H]1[C@H]1C=C[C@@H]2C(=O)[C@]1(O)COC(=O)c1ccccc1)c1ccccc1 | SW480 | cell growth or viability, MTT |  | 50 µg/mL |  | viability | 60.2%
COc1cc2nc(c1)CNCc1cc(OC)cc(n1)CNC2.[Cu+2] | Cu(II)/Cu(I) redox couple | cyclic voltammetry | DMF | with: TBAP | relative to: Fc/Fc+ | half-wave potential | -803 mV
